Assay results pooled from the literature.
Protocols differ between the studies behind these lines.
Target: Serine/threonine-protein kinase RIO2 (RIOK2, Homo sapiens, UniProt Q9BVS4)
Chain of UniProt Q9BVS4 (whole entry, looked up): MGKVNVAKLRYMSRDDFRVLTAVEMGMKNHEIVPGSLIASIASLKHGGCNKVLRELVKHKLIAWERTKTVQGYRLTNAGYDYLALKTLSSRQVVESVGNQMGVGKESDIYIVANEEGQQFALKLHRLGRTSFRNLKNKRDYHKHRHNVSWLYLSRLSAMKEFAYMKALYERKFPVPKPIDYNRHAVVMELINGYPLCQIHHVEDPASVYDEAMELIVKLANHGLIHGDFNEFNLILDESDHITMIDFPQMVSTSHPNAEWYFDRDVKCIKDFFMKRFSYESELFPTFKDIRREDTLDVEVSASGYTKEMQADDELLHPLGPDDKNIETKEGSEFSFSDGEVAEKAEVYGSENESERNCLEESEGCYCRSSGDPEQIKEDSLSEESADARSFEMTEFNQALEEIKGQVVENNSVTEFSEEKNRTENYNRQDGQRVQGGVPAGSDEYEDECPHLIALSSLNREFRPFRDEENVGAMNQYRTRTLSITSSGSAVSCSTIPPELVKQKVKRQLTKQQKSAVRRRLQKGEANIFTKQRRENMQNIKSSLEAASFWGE

CNC(=O)C1CCN(c2cc(C)c(F)cc2NC(=O)c2ccc(-c3cc(O)ccc3C)c(C)c2)CC1 — remaining binding (binding, competition with immobilised ligand; 1 µM): 100%
CN1CCN(Cc2ccc(NC(=O)c3cccc(C#Cc4cnc(N)c5ncccc45)c3)cc2C(F)(F)F)CC1 — remaining binding (cell-free assay, competition with immobilised ligand; 50 nM): 86%
Cc1ccc(-c2c(/C=C(\C#N)C(=O)NC(C)C)n(CCCO)c3ncnc(N)c23)cc1 — remaining binding (cell-free assay, competition with immobilised ligand; 1 µM): 72%
Cc1cc(NC(=O)[C@H](O)c2cc(F)cc(F)c2)ccc1-c1cnc(N)c(C(=O)NC(C)C)c1 — remaining binding (binding, competition with immobilised ligand; 0.1 µM): 93%
CC(C)=CC1OC(C)(C)C2C=C3C(=O)C(Cl)=CC(O)C3C3C(O)C4OC4C(=O)C132 (stereo not drawn) — remaining binding (cell-free assay, competition with immobilised ligand; 10 µM): 79%
C=C1CCCCCCCCCC(CO)C1=O (stereo not drawn) — remaining binding (cell-free assay, competition with immobilised ligand; 10 µM): 69%
Cc1cnc2nc1Nc1cccc(c1)COC/C=C/COCc1cc(ccc1OCCN1CCOCC1)N2 — remaining binding (binding, competition with immobilised ligand; 0.1 µM): 72%
CC(=O)N1c2ccc(-c3ccc(CNC(=O)c4cn5cc(-c6cnc(N)nc6)nc(N6CCOCC6)c5n4)cc3)cc2CC[C@@H]1C — remaining binding (KINOMEscan; 10 µM): 6%
COc1ccc(NC(=O)Nc2ccc3c(c2)C(=O)N(C(C)CO)CC(C)C(CN(C)Cc2ccc4c(c2)OCO4)O3)cc1 (stereo not drawn) — remaining binding (binding, competition with immobilised ligand; 10 µM): 38%
CC(C)(C#N)c1ccc(-c2cnc(Nc3cnccn3)nc2Cl)cc1 — remaining binding (cell-free assay, competition with immobilised ligand; 10 µM): 7.8%
C=CC(=O)N1CCc2ccc(-n3c(=O)ccc4cnc5ccc(-c6cnn(C)c6)cc5c43)cc21 — remaining binding (KINOMEscan; 1 µM; relative to: DMSO control): 96%
COc1cc(Nc2nc(C)cc(-c3cnn4nc(OC)ccc34)n2)cc(C(F)(F)F)c1 — remaining binding (binding, competition with immobilised ligand; 1 µM): 87%

Excerpt of the above:
C=C1CCCCCCCCCC(CO)C1=O (stereo not drawn) — remaining binding (cell-free assay, competition with immobilised ligand; 10 µM): 69%
